Experimental data collected from several papers.
Compare with care: the assays were run in different laboratories. Numbers after ± are the reported error.
Organism: human cytomegalovirus

SMILES = Cc1cn([C@H]2C[C@H](N=[N+]=[N-])[C@@H](COC(=O)Cn3c(=O)ccn(CCCCCCOc4ccc(Br)cc4)c3=O)O2)c(=O)[nH]c1=O; test = viral replication, plaque reduction; system = WS1, AD169; conditions = 5 days; EC50 = 7.9 ± 3 µM
SMILES = O=c1nc(NC2CC2)c2ncn(CCOCP(=O)(O)O)c2[nH]1; test = cytopathic effect; system = HEL, AD169; EC50 = > 100 µM
SMILES = CCOC(=O)C(C)NP(=O)(COC(CF)CN1CN2C=C(c3ccc(OC)cc3)NC2=NC1=O)NC(C)C(=O)OCC (stereo not drawn); test = cytopathic effect; system = HEL, AD-169; EC50 = > 100 µM
SMILES = OC[C@H]1O[C@@H](n2cnc3c(NCc4ccccc4)nc(-n4cc(-c5ccccc5)nn4)nc32)[C@H](O)[C@@H]1O; test = viral plaque formation; system = HEL, Davis; EC50 = > 40 µM
SMILES = O=C(O)Cn1c(=O)ccn(CCCCCCOc2ccc(Br)cc2)c1=O; test = viral replication, plaque reduction; system = WS1, AD169; conditions = 5 days; EC50 = 78.1 ± 18.3 µM
SMILES = Nc1ncn(CC(O)C(F)(F)F)c(=O)n1 (stereo not drawn); test = cytopathic effect; system = HEL, AD-169; EC50 = 231 ± 12.9 µM
SMILES = O=c1ccn(CCCCCCCCCCCCOc2ccc(Br)cc2)c(=O)[nH]1; test = viral replication, plaque reduction; system = WS1, AD169; conditions = 5 days; EC50 = 3.1 µM
SMILES = CCCCCCCCCCCCCCCCOCCCOP(=O)(O)COCCn1cnc2c(=O)[nH]c(=O)[nH]c21; test = cytopathic effect; system = HEL, AD169; EC50 = 0.2 ± 0.28 µM
SMILES = Cc1cn([C@H]2C[C@H](N=[N+]=[N-])[C@@H](COC(=O)Cn3c(=O)ccn(CCCCCCCCCCCCOc4ccc(Br)cc4)c3=O)O2)c(=O)[nH]c1=O; test = viral replication, plaque reduction; system = WS1, AD169; conditions = 5 days; EC50 = 5.1 ± 1.2 µM
SMILES = OC[C@H]1O[C@@H](n2cnc3c(O)nc(-n4cc(-c5ccccc5)nn4)nc32)[C@H](O)[C@@H]1O; test = viral plaque formation; system = HEL, AD-169; EC50 = > 50 µM
SMILES = CC(C)OP(=O)(CO[C@H](CF)Cn1cnc(N)nc1=O)OC(C)C; test = cytopathic effect; system = HEL, AD-169; EC50 = 24.5 ± 13.6 µM
SMILES = Nc1ccn(C[C@@H](CO)OCP(=O)(O)O)c(=O)n1; test = cytopathic effect; system = HEL, Davis; EC50 = 0.92 ± 0.34 µM
SMILES = Nc1ccn(C[C@@H](CO)OCP(=O)(O)O)c(=O)n1; test = plaque formation; system = HEL, AD169; EC50 = 0.92 µM
SMILES = O=c1[nH]c(=O)c2ncn(C[C@@H](CO)OCP(=O)(O)O)c2[nH]1; test = cytopathic effect; system = HEL, AD169; EC50 = 80.2 ± 36 µM
SMILES = CCOC(=O)C(C)NP(=O)(COC(CF)CN1CN2C=C(c3ccc([N+](=O)[O-])cc3)NC2=NC1=O)NC(C)C(=O)OCC (stereo not drawn); test = cytopathic effect; system = HEL, AD-169; EC50 = > 100 µM
SMILES = Nc1ccn(C[C@@H](CO)OCP(=O)(O)O)c(=O)n1; test = virus-induced cytopathicity; system = HEL, AD-169; EC50 = 1 ± 0.14 µM
SMILES = Nc1ncn(CC(OCP(=O)(O)O)C(F)(F)F)c(=O)n1 (stereo not drawn); test = cytopathic effect; system = HEL, AD-169; EC50 = > 100 µM
SMILES = Nc1nc(O)c2ncn(COC(CO)CO)c2n1; test = viral replication, plaque reduction; system = WS1, AD169; conditions = 5 days; EC50 = 2 ± 0.5 µM
SMILES = O=c1[nH]c(=O)c2ncn(CCOCP(=O)(O)O)c2[nH]1; test = cytopathic effect; system = HEL, AD169; EC50 = 10.5 ± 3.9 µM
SMILES = Nc1nc2c(ncn2COC(CO)CO)c(=O)[nH]1; test = viral plaque formation, plaque reduction; system = HEL, Davis; EC50 = 7.9 µM
SMILES = O=c1[nH]c(=O)c2ncn(C[C@@H](CF)OCP(=O)(O)O)c2[nH]1; test = cytopathic effect; system = HEL, AD169; EC50 = > 329 µM
SMILES = Cc1cn([C@H]2C[C@H](N=[N+]=[N-])[C@@H](COC(=O)Cn3c(=O)ccn(CCCCCCCCCCOc4ccc(Br)cc4)c3=O)O2)c(=O)[nH]c1=O; test = viral replication, plaque reduction; system = WS1, AD169; conditions = 5 days; EC50 = 3.2 ± 0.5 µM
SMILES = C[C@H](Cn1cnc2c(=O)[nH]c(=O)[nH]c21)OCP(=O)(O)O; test = cytopathic effect; system = HEL, Davis; EC50 = > 100 µM
SMILES = CCOP(=O)(OCC)[C@@H]1C[C@H](C(=O)Nc2cc3c4c(cccc4c2)C(=O)N(CCN(C)C)C3=O)ON1C (racemic); test = plaque formation; system = HEL, AD169; EC50 = 45 µM

Some of these lines once more:
SMILES = Nc1ncn(CC(OCP(=O)(O)O)C(F)(F)F)c(=O)n1 (stereo not drawn); test = cytopathic effect; system = HEL, AD-169; EC50 = > 100 µM
SMILES = C[C@H](Cn1cnc2c(=O)[nH]c(=O)[nH]c21)OCP(=O)(O)O; test = cytopathic effect; system = HEL, Davis; EC50 = > 100 µM
SMILES = CC(C)OP(=O)(CO[C@H](CF)Cn1cnc(N)nc1=O)OC(C)C; test = cytopathic effect; system = HEL, AD-169; EC50 = 24.5 ± 13.6 µM
